Experimental data gathered from unrelated publications.
Every numbered part comes from another study and shows a few of its results, in no order.

Sample 1 — method: RNA Bind-n-Seq; molecule type: RNA; matrix: in vitro; tested at: 20 nM; setting: 6-mer, flanks averaged, single round; added: 150 mM KCl; relative to: input library; direction: higher = stronger binding
Target: TAR DNA-binding protein 43, full length, His tag (TARDBP, Homo sapiens, UniProt Q13148, residues 1-414)
| Oligonucleotide | 6-mer enrichment (R) |
| --- | --- |
| GAAUAG | 0.964 |
| UGGAUU | 0.69 |
| CAGUCU | 0.586 |
| GAGCCU | 0.829 |
| GUCAGG | 1.7 |
| GGAGCU | 1.45 |
| CGUGAU | 0.739 |
| ACUGUG | 0.882 |

Sample 2 — method: protein-binding microarray; molecule type: double-stranded DNA, one strand shown; matrix: in vitro; tested at: 940 nM top; setting: 60-bp whole probe; added: salmon DNA 0.4 mg/ml; relative to: random background probes; direction: higher = stronger binding; all sequences stand within: GCCTAGCAC … GTCTTGATTCGCTTGACGCTGCTG
Target: Interferon regulatory factor 5, full length, phosphomimetic (IRF5, Homo sapiens, UniProt Q13568-2, residues 1-514, S451D/S453D/S456D/S462D)
| Oligonucleotide | fitted relative affinity |
| --- | --- |
| TCTCTGCTACCCTTTGAAAGTGTGCTA | 4.25 z-score |
| GACGGACTGCACTATCGGGACGTGCTA | -0.377 z-score |
| TTCGATATCAGTCTCGATTAGTGCTAG | 3.12 z-score |
| TTAGGTTTCCTTTTCCTCTAGTGCTAG | 2.37 z-score |
| GACGGTATGCTACTGCTGACGTGCTAG | -0.489 z-score |
| TTAGGACTGGACTATCCGTTAGTGCTA | -0.432 z-score |
| GACGGCTTCCTTTTCCTGACGTGCTAG | 0.243 z-score |
| GACGGTTTCAGTTCCGAGACGTGCTAG | 5.59 z-score |
| TCATCTCCATTTTTCTAACTGTGCTAG | 1.39 z-score |

Sample 3 — method: universal PBM; molecule type: double-stranded DNA, one strand shown; matrix: in vitro; tested at: 600 nM; direction: higher = stronger binding
Target: Sal-like protein 4, full length isoform A (SALL4, Homo sapiens, UniProt Q9UJQ4, residues 1-1053)
UniProt Q9UJQ4, sequence (whole entry, looked up): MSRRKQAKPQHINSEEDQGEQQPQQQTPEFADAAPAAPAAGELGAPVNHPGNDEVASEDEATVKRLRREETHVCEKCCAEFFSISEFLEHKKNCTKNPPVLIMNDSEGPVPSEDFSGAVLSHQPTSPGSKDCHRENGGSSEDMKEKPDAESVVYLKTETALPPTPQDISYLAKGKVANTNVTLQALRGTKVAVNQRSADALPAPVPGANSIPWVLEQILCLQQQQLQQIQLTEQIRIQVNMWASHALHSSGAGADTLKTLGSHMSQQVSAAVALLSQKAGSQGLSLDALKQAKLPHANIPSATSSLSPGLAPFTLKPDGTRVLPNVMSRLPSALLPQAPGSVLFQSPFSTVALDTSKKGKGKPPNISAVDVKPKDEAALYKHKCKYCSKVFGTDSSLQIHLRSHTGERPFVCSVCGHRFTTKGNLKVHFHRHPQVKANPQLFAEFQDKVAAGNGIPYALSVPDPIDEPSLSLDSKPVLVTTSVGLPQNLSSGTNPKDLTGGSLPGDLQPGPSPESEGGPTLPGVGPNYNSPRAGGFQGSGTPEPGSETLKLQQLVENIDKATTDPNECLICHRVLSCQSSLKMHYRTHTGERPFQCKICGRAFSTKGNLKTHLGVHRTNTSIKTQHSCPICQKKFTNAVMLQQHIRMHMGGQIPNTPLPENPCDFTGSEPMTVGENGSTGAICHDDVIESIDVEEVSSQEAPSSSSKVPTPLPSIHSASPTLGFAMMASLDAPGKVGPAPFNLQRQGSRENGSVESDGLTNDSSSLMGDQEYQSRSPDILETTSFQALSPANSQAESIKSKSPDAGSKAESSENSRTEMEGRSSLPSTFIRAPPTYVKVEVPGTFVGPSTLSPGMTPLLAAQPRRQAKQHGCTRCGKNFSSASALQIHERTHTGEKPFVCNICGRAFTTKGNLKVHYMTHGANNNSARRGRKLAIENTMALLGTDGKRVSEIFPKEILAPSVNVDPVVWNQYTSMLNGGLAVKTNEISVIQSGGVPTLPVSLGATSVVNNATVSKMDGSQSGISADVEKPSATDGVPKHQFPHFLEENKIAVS
Setting: 8-mer, flanks averaged, mean of replicates
| Oligonucleotide | E-score |
| --- | --- |
| AGGAATAT | 0.319 |
| AGCTCACT | -0.183 |
| GGAGCATA | -0.0219 |
| GTTTGGGA | -0.0178 |
| ACGTGGGA | -0.159 |
| GAGATTTA | 0.188 |

Further values, each from its own experiment
| Molecule | target | assay | test system | conditions | scale | measurement | result |
| --- | --- | --- | --- | --- | --- | --- | --- |
| PhoQ, residues 284 288 289 292 302 303 SVHLDV | PhoP, residues 12 14 15 18 19 NHTVL (Escherichia coli, UniProt P23836) | Sort-seq, refers to: YFP reporter | E. coli | PhoQ-PhoP variant library, added: 10 µM Mg2+ | relative to: high Mg2+ state, higher = stronger signaling | fold induction | 13.8 |

A few entries again (sample 1):
| Oligonucleotide | 6-mer enrichment (R) |
| --- | --- |
| GGAGCU | 1.45 |
